# Measurements from different studies.
# Parts stem from different laboratories: compare values within a part only. Changes are numbered by the printed parent chain.

# Block 1
# Target: HLA class I histocompatibility antigen, A alpha chain, allele A*26:03 (Homo sapiens, UniProt P04439)
# Observed: peptide-MHC binding
# Molecule type: peptide
# Concentration: concentration not given
Molecule,binding
PRFGSCYFL,inactive
GYAWIDFDI,inactive
EFKRRLKDL,inactive
IYTVIYYIF,inactive
YGIGVGSGY,inactive
SLFTEQAFY,inactive
RWRVYLRRK,inactive
QGKQHLHSL,inactive
FMKVKFEAL,inactive
VMAASGAPF,inactive
RFRCVGPAP,inactive
GEIGIRNWL,inactive
LEYGANYFL,inactive
WMACHSAAF,inactive
KSLFNTVATLY,inactive
DVRPRHPGY,inactive
FQKDAKVLF,inactive
DFGYATMAK,inactive

# Block 2
# Target: Sal-like protein 4, full length isoform A (SALL4, Homo sapiens, UniProt Q9UJQ4, residues 1-1053)
# UniProt Q9UJQ4, sequence (whole entry, looked up): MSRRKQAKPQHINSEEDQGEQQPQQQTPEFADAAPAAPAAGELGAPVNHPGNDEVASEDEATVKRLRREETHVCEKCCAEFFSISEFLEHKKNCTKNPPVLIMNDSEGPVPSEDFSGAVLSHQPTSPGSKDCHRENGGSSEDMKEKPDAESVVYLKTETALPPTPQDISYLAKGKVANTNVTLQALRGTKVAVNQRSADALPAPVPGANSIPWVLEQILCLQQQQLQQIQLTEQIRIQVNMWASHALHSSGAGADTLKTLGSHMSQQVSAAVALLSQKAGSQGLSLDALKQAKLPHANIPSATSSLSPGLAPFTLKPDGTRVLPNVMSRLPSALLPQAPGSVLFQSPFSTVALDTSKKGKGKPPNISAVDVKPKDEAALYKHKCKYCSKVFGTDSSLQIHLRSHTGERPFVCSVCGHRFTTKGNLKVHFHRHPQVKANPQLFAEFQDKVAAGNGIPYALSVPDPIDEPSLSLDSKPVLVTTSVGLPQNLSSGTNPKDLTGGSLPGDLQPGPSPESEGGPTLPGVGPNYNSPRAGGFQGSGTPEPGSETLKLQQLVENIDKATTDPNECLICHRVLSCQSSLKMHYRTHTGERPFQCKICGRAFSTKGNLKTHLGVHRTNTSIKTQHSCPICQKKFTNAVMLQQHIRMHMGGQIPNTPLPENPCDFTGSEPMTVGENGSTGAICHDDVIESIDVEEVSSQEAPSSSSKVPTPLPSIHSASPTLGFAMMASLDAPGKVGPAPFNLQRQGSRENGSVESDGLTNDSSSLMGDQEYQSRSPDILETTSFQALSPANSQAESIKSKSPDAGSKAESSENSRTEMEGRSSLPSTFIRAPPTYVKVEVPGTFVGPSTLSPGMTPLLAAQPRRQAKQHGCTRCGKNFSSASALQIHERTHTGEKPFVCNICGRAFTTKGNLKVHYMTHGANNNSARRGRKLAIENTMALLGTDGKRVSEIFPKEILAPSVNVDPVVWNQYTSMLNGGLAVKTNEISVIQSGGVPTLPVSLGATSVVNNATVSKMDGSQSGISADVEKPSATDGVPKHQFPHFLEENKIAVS
# Technique: universal PBM
# Molecule type: double-stranded DNA, one strand shown
# Medium: in vitro
# Concentration: 600 nM
# Setting: 8-mer, flanks averaged, mean of replicates
# Direction: higher = stronger binding
Strand,E-score
AATGCTGA,0.028
GCGAACTA,-0.00536
AATTGTGG,0.129
ACCGGCCG,-0.376
ATGAACGG,-0.0213
CAGGACCC,-0.393
AGCAGAAC,0.021
CCTACTAC,-0.112

# Block 3
# Target: CCND3, cyclin fold, Cln2 fusion (human)
# Technique: yeast growth competition, sequencing
# Medium: yeast
# Setting: weak parent motif
# Baseline: not given
# Direction: higher = stronger binding
# Starting sequence: viral docking peptide; YKVKRRLVFGADD; partner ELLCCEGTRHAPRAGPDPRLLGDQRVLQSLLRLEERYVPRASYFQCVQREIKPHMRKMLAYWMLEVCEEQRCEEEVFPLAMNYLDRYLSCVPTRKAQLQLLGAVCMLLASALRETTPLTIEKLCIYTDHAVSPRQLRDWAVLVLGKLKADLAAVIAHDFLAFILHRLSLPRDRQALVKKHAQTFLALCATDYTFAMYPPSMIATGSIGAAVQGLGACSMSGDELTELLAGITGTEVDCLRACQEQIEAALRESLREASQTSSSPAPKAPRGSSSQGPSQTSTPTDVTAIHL
Substitution,normalised enrichment score
YNVKRRLVFGADD [K2N],0.245
YKLKRRLVFGADD [V3L],0.633
YKVKRFLVFGADD [R6F],0.12
YKVKIRLVFGADD [R5I],0.295
YKVKRRLAFGADD [V8A],0.226
YKKKRRLVFGADD [V3K],0.0758
YKVKRPLVFGADD [R6P],0.299
YKVKRRLVFGEDD [A11E],0.563
YKMKRRLVFGADD [V3M],0.546
YKNKRRLVFGADD [V3N],-0.0489
YCVKRRLVFGADD [K2C],0.117
YKVKRRLVFPADD [G10P],0.365
YKVKQRLVFGADD [R5Q],0.121
YKVKRRKVFGADD [L7K],-0.178
YTVKRRLVFGADD [K2T],0.383
YKVKRWLVFGADD [R6W],-0.00227
YKVKRRLPFGADD [V8P],-0.225
YKVERRLVFGADD [K4E],-0.291
YKVKRRLVFGACD [D12C],0.14
YKVKRRLVFGQDD [A11Q],-0.223
YKVKRRYVFGADD [L7Y],-0.0935
YKVKRRLVFGSDD [A11S],0.275
YKVKKRLVLGADD [R5K F9L],0.237

# Block 4
# Target: RING finger protein unkempt homolog, zinc fingers 1-6, GST-SBP tag (UNK, Homo sapiens, UniProt Q9C0B0, residues 30-357)
# Technique: RNA Bind-n-Seq
# Molecule type: RNA
# Medium: in vitro
# Concentration: not given
# Setting: RNA with constant flanks, human-mouse chimeric sites, ends assumed
# Baseline: input RNA pool
# Direction: higher = stronger binding
# Construct (chain): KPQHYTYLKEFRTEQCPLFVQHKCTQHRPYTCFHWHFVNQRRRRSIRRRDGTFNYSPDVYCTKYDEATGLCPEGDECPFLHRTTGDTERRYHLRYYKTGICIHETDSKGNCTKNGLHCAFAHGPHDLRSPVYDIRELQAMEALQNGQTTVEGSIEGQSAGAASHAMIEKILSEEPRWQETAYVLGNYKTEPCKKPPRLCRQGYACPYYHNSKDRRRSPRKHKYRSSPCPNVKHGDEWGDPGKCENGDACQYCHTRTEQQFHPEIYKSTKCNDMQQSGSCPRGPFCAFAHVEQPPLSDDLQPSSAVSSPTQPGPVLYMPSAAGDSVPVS
Strand,bound/input enrichment [ratio]
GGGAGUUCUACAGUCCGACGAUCAGUGUGCAGGAAUUCAUGACCUUUACAAGUCAACUGAUUGUGGAACGCUCGGGGAAAGGCACUAGAGCUUCUGUCAAAGAACAAGAGUAUCUUUGCCACGUCUACGUCCGGAGCGACAGUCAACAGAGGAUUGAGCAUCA,0.0941
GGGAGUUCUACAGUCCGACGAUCUUACCCGAGAACGAGGAUGAGCUGGAGAGCACCAACAGGCGCUACACCAAGAGAGACUGCAGCACUUUUCUCAGAACUAGUGAGACGGGCAUCGUGGACCAGGUCAUGGUCACUCUCAACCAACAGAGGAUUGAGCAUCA,0.151
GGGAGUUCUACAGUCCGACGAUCUUACCCGAGAACGAGGAUGAGCUGGAGAGCACCAACAGGCGCUACACCAAGAGAGACUGCAGCACUUUCCUCAGAACUAGUGAGACGGGCAUCGUGGACCAGGUCAUGGUCACUCUCAACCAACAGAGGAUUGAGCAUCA,0.145
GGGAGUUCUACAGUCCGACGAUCAUUGUUGAAGCGAAUCCACUUUUAGAAGCCUUUGGAAAUGCGAAGACUGUUCGCAACAAUAAUAGCAGUCGAUUUGGAAAAUUUGUAGAAAUUCAUUUCAAUGAAAAGAGUUCGGUUGUUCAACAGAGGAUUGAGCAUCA,0.521
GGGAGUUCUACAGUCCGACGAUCCCAAUUGUGGAGCAGUACUUGAAGACAAAGAAAAAUUCUAAUAAUUUAAUCAUCAAGUACAUUAGCUGCCGGCUGGUGACAUUUGUGAUUAUACUGUUAGCGUGUAUCUACCUGGGCUAUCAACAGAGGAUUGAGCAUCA,0.145
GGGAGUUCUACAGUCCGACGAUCUAUAUCACCAAUGUCCUACAAAAUCCUGAUUUGGCUCUGAGAAUGGCUGUGCGGAACAACUUAGCUGGUGCUGAAGAACUCUUUGCCCGGAAAUUUAAUGCUCUCUUCGCCCAGGGAAACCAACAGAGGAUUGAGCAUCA,0.678
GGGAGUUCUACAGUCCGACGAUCCUCAGAGAUGUGGCAUAUCAAUAUGUGAAAAAGGGGUCUCGUAUAUUUGUGGAAGGGAAAGUGGACUAUGGCGAGUACAUGGAUAAAAACAAUGUGAGGCGGCAAGCAACAACAAUCAUACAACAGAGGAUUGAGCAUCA,0.419
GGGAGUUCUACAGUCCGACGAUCGCAUAUGGUUAUCGAGGAAAGGACUGUAGAGCGAAUGUAUACCUGCUUCCCACAGGGGAGAUAGUUUAUUUCAUUGCCUCAGUGGUAGUCCUGUUUAAUUAUGAGGAGAGGACUCAGCGACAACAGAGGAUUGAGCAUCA,0.856

# Some of these lines once more (block 3):
Substitution,normalised enrichment score
YKVKRRLVFGQDD [A11Q],-0.223
YKVKRRLVFGEDD [A11E],0.563
YKKKRRLVFGADD [V3K],0.0758
YNVKRRLVFGADD [K2N],0.245
YKVERRLVFGADD [K4E],-0.291
YKVKKRLVLGADD [R5K F9L],0.237
YKVKQRLVFGADD [R5Q],0.121
YKNKRRLVFGADD [V3N],-0.0489
YTVKRRLVFGADD [K2T],0.383
